Measurements of several laboratories.
Each numbered part is a random draw from the data of one study; scales do not carry over between parts.

Series 1 — method: EMSA with sequencing; molecule type: double-stranded DNA, one strand shown; sample: in vitro; tested at: 10 and 20 nM; relative to: negative control set to 0; direction: higher = stronger binding
Target: Hepatocyte nuclear factor 3-alpha (Foxa1, Mus musculus, UniProt P35582, residues 1-468, full length assumed)
Notes: whole designed probe, mean of two concentrations, ends assumed
Constant ends, left off below: GTGAGCGGTGCCCATTGATGGGGAAC … TTTCACTGGGATCGTGGGGAC
Target sequence (chain): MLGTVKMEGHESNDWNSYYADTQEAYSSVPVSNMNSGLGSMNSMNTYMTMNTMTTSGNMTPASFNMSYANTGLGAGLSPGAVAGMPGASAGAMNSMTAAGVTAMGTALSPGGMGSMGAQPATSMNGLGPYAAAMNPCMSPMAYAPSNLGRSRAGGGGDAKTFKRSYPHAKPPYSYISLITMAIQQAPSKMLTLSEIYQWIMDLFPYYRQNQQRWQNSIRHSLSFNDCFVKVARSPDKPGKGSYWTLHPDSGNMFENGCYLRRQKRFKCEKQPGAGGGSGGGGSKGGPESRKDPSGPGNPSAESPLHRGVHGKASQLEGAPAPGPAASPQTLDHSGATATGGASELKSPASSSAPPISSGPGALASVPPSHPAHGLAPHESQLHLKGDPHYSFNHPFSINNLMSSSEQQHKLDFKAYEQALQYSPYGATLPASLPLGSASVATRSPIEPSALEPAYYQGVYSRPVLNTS
Sequence | normalised bound fraction [ratio]
TGATTCATCTGTAGGTCTGCTTCTATTGACTTTGTTCTCTTGATTATGGGCCACATTTTCCAGCTTCTTTGTGTGTTTTAAACTTTTGTATTATGTGTACTTTTACCTTACACACAAGCACATAAGCCATGTAAAGTCCCTGTTTTGGTGAGGTTGCAATTTTTGAGCCTCAAATTCTGACAGGAAGCCCCAG | 0.31
CTGAACTCTGTCTTAAATTAGAAGATGTTTCAGATGTCAACAATGTGACTAGGCAGTCTTATGAAACATTAACCATCTCTTTGGTTGGTTGCTTGTGTACACACAAATATATTCATTCTTGGAATGCCTTGGGCCATTAAATACGTCTAAAGGTTTGATGCTGGGAAAACATGATGAGGGCCAAGGGGTCTTG | 0.331
TTTTCATTTACTCTTGTTTTGTGTTTGAGTATAGACAGCTTTTCCCATCCTCCATCAGGGTCATTGTCCCACCTTCTCTGACTCACTTATTGTGTCAACAGAATTAAAAGAGCAGCCGGTGGACGTGTGTAGAGGCTGAAGGAGAGCTGTGTTGCTAGCTTTGTATTTGAACGGTTCGTACACAAACAGTTCT | 0.268
TACAGGAAATTTATCAGCTCTTGTTGATTCTGTTAGCTCGTGATCAATGTTGAGCCTAAAAAGAACGTGGCCGAATCAGTGGTTTGTAACCCATGTTTATTCTAATCAGTCAGTCCGGGGCTATAATGGTAGTTGGATGTTTTTAATACTATCTTTGGCAAATTCCCATATATTCACATACAGCATAGTTACA | 0.183
AGATATTAAACGCCCAGAGAAAGGCTATAATAAAAAATGCATTTAACTTTTTCAAATCTCTTGTTCCCACATCTACTTGAATGCAGAAACTCTTGTTTGCCTTAATATTTACTTGTATTTTGCAGAACAAATTTTTGCAGAATTCATTTTGGAAAATGCAGCCACTGACAACTGGGATAATTTTCTAAAGGAA | 0.145
AAAGTAATGAAATAAAAAAAACCTGTTAGCCAAGAATCCTATATCTGGCAAAACCATCCTTCAAAAATGAAGGAGAAATTAAGACATTCCTAGATAAACAAACACTGAGGGAGTTCATTGCTAGTTGGCCTGCCCTACAAGAAATACAAAATACTTCAGGCAGAAGTGAAAAAACACTAAATCTTGAAGCCAT | 0.418
GGTTGGACACCCCTGCTTTAATGTATGGAAATTGTGTACTCTGTATATATTCAAAGTACTGTGTGTATATTTGAGTATATTTGAATATTCCAAAGTAAACAAATAACTATGAAAGAATAGTCCTTACATAGCTAACATAAGCTGATCAATAATTAGTTTTTGTTAACCATCTGGTGTATGCTTTCTGTACCAA | 0.532
AGAGGAATCCCAGAGAGCTGTTCTTTACAGTTTTGTTTCTTGTTTAAATTCGAGAACTAAAAATCCAGTCCCAGAGTGCGTACATAGTCAAAGCAATCTTGGAAAGTTCAGAAGTTATGCAGTGAACCATCAGAGCCTATTAAGAATCTAATCTTTCTCCAAGTAATGTTGGGGTCAGGCAGCTAACTGCAAC | -0.0267

Series 2 — method: protein-binding microarray; molecule type: double-stranded DNA, one strand shown; sample: in vitro; tested at: 250 nM; notes: 60-bp whole probe; with: salmon DNA 0.4 mg/ml; relative to: random background probes; direction: higher = stronger binding; constant ends, left off below: GCCTAGCAC … GTCTTGATTCGCTTGACGCTGCTG
Target: Interferon regulatory factor 5, full length, phosphomimetic (IRF5, Homo sapiens, UniProt Q13568-2, residues 1-514, K96S/S451D/S453D/S456D/S462D)
Sequence | log fluorescence [z-score]
TTAGGTATCGGACTGGGATAGTGCTAG | 1.32
TTAGGTTGCGGGTTTCGGTTAGTGCTA | 7.33
CACAGTCTGAGATCCAGAAGGTGCTAG | -0.489
CTAGATCTCAGTCTCGATTAGTGCTAG | 0.614
TTAGGTGTCGGGTATCGGTTAGTGCTA | 3.19
GACGATCTCAGTCTAGAGACGTGCTAG | -0.306
GACGGTATCGGGAATCGGGACGTGCTA | 1.44
TTAGGTATCAGGTATCGGTTAGTGCTA | 5
GACGGTATCGACAGTGGGGACGTGCTA | 1.79
ATTACTTTAGGTTCCCAGGTGTGCTAG | 0.00602
TCAAGAATGTTTTTCATACTGTGCTAG | 0.76
TTTTATATCTTATCCTATCAGTGCTAG | 1.61
TCAGCATTGCTTCTATAACTGTGCTAG | 0.152
TTAGATTTCAGTCTCGATAAGTGCTAG | 2.99
CTCTAACTCAAGATTCCTCTCGTGCTA | 0.3
GACGGTTTCATACTGCTGACGTGCTAG | 1.53

Series 3 — method: RNA Bind-n-Seq; molecule type: RNA; sample: in vitro; tested at: 365 nM; relative to: no-protein control; direction: higher = stronger binding
Target: RNA binding protein fox-1 homolog 2, RRM domain, GST-SBP tag (RBFOX2, Homo sapiens, UniProt O43251-10, residues 100-194)
Notes: natural RNA segment, single round, ends assumed
Constant ends, left off below: GGGAGUUCUACAGUCCGACGAUC … UGGAAUUCUCGGGUGCCAA
Construct (chain): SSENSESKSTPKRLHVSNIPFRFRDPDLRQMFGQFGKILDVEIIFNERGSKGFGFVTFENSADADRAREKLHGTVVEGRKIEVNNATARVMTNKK
Sequence | RBNS enrichment (R)
UUGUGAAAUAGUAUCAUGUGAGAAACAGUUUGUAGAAAAAAACUAUACCUGGGAAGACCUUUGCAACAUUGUUCCUUCCAUGGGCCAAGACUCAGUUAGGAGGCAUAAAU | 0.32
CUUUUGUAAAGAAUCCUUUUGUAAUGCAAACCAAUUAUCCCUGAAGGUAUCUGUUUUGUAAGUUUGGAUUUUUGUAUAUCUGGUUUAUCUUAAGCUUCUCUACUGAGGCA | 0.377
CUUGAAUAGCUCUAACUCCAAACCUCUGUCCACACCUCCAGAGCACCAAGUCCAGAUUUGUGUGUAAGCAGCUGGGUGCCUGGGGCCUCUCGUGCACACUGGAUUGGUUU | 0.645
CCCUUGAACUUGUGAUCCUUCUGCCUCAGUUGCCUCCCAAAUUAUAGGGUUAUGUCACCAACUUGCAGCCUGAGACACUUGUUUUAAAAAGCUCAGUGUUUUAUUUCAGU | 0.426
UGGGGCCUUCCUGGCUUUGGGAGUAAGAAAUGGGCCUCAGCCCCGCGGAUCAACCAGGCAGAGUUCUGUGGCGCCGCGUGGACAGCCGGAGCAGUUGGCCUGUGCUUGGA | 0.413
GUUUUAUUGAGAGGGAGACAAAUGGAGCUCCAACUAUUUACUCACUUUUGCAUAUAUUAGGUUUCCAAUUCUAUUCCAUUCUCACAAUAUAAGCAUAUAUAUCCCCAUUC | 1.86
UUGCCAGUCCUUGGAAGAAGAGUUCAUCUGGGUCUGAUUGACUGUAGAGAUUUGACACGUUCAUAAAGCUGCUUCCUGUCUGUCUUAGGUCUAUAUCAUAGACCUUGACU | 0.282
UAAUCCCACUCAAUAGUAUCAUUACAGUUUUCUGUAAGAGAAAAUAUUACUUAUUUAUCCCAGUAUUCCUAGCCUGUCAACAUAAUAAAUAUCGGAACAAAACCUGGUAA | 0.966
GUGGUAUAAGCAAAACUACAUGGACUCUGUCCUGGUAUCCUUUUCCUGUGUGGUUGCCCCGUGUCCUCUGGCCUAGGGUUAAGUGUGCAAGAUAACUACUCGUGAGUAUU | 0.24
AGUUUGUUUGUAUAACUGCUUCCAACCCACUGCUUCUUAUGUUGCUGGGGCUCCUUCCACGGACCCCAGCUGUGCCCUCAAGUUGGUGAUUCUAGUUUGGGCUCAAUGAA | 0.301
GGGUUCAGCUUGGAGGUGACACCUCUUUGGUCUACAUUUGUACAAUGGAUGCAUCAAGUUUCUAAAUUUUAUUUCCUGCCUAAAGAAACCAAAUUGUCCCUCAGCAUCCU | 0.559
CACACCGGUGCUGGCCACACCAGCCCCCUUUCACCUCCAGUGCCACAAUAAACCUGUACCCAGCUGUUCUUGUGUGCCCUUCCCCUGUGCAUCCGGAGGGGCAGAAUUUG | 0.959

Series 4 — method: protein binding microarray; molecule type: double-stranded DNA, one strand shown; sample: in vitro; tested at: not given; relative to: not given; direction: higher = stronger binding
Target: Histone acetyltransferase KAT6A, winged helix 2, GST fusion (KAT6A, Homo sapiens, UniProt Q92794, residues 85-181)
Notes: 8-mer, flanks averaged, mean of 2 arrays, mostly near background
Residues (chain): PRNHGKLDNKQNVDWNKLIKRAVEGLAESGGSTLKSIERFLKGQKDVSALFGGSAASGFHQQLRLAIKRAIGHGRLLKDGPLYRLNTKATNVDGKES
Sequence | E-score
ACTCCCTA | -0.00366
GGATCTGA | 0.0262
AACTCCTC | -0.175
CACACTAA | 0.046
AGCCAGTA | 0.0429
CAGGATCG | -0.0859
ACGCTCTA | -0.147
AACGAAGG | -0.00269
ATGACCCA | -0.0694
GTCAGAAA | -0.0147
AATCAAAA | 0.183
CATTAGAG | -0.049
ACTATGTA | -0.0892
ATTAATTC | 0.177
GGTGCGAA | 0.0436
GGCCAACA | 0.00786

Series 5 — method: competition protein-binding microarray; molecule type: double-stranded DNA, one strand shown; sample: in vitro; tested at: 2 µM; with: Pho4 competitor, 0.05 µM; direction: higher = stronger binding; constant ends, left off below: … GTCTTGATTCGCTTGACGCTGCTG
Target: Centromere-binding protein 1, full length, His-tagged (CBF1, Saccharomyces cerevisiae, UniProt P17106, residues 1-351)
Chain of UniProt P17106 (whole entry, looked up): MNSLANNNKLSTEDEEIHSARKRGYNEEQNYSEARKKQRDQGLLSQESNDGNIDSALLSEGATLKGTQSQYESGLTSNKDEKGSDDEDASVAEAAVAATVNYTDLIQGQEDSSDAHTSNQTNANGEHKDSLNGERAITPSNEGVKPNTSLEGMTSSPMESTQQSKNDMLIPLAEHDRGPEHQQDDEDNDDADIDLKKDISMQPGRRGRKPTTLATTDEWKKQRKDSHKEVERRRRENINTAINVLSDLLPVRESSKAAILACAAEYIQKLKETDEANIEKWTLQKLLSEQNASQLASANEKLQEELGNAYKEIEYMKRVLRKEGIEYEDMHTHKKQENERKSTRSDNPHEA
Notes: whole 60-bp probe, lowest competitor level
Sequence | fluorescence intensity
ACCTTAACGCGAAAACGCGTGAAATTGAAATTTAGC | 113 a.u.
AAAGCGGTAATTTGTCACGAGACTTCACATATCTAT | 1470 a.u.
CATACCCAACCTTGGGGGGTGGGTGAAGATATTTGT | 89.3 a.u.
GTCTTGTCTCATTGCAAAGTGGGTGTCCCCACTTCA | 93.5 a.u.
CACACCGTACTTGAGCACATGTCTGGATTGCTAGCT | 195 a.u.
CATGCCTTTTGTTCGTCCGTGACTCGGTCCTTCAAT | 117 a.u.
TGCGCAACAACTTTTCACGTGTATTTATGTCTAGAA | 897 a.u.
CTTTGCCGCCTGAAACACGTGTTGAACAAGCCGCCC | 1370 a.u.
ATGTACCGTTCAAGCCACCTGACATTATACCACCAG | 238 a.u.
CATACCCAACCTTGTTAAGTGGGTGAAGATATTTGT | 78.8 a.u.
ACCACCAAAACCGACCACCGGCGAGCGGATATGCGG | 69.9 a.u.
CTTTCCCGATCTTGTCACGGTACTTTAGCACATTTG | 232 a.u.
TCCTGTATTTTAAAGCACGCAAGGCTGAAATAAACG | 85.4 a.u.
CTAACGAAGGTTTGAAGGGTGGGTGACAAGCCAAGT | 70.9 a.u.
TCAAATTAGACAATTGGCGTGGCCGGACGAGATCGC | 57.7 a.u.
TCCAATCTTTTCCGTCACATGTACACACTCATATAC | 837 a.u.
CGATACCGTAACCACCATGTGGGCAAGTACCGTATT | 72.3 a.u.
AAAGCGGTAATTTGGGTAGTGGGTGCAGATATCTAT | 108 a.u.
CTTTCCCGATCTTTTCACGTGAAGTTAGCACATTTG | 784 a.u.
CTAACGAAGGTTTGGAATGTGGGTGACAAGCCAAGT | 74.7 a.u.
CATACCCAACCTTGATTGGTGGGTGAAGATATTTGT | 59.1 a.u.
CGATTCGCTGCTCAACACATGGAGGGCCCAAAGACA | 68.6 a.u.
TCAGGAATATGAAGGCAGGTGAAATGAAACCAGTCA | 63.6 a.u.
CATACCCAACCTTGTCACGATACTTAAGATATTTGT | 302 a.u.
ATTGGTGCAATTCCGCACGTTCCAACTTTCCGATGC | 94.1 a.u.

A few entries again (series 4):
Sequence | E-score
AATCAAAA | 0.183
GTCAGAAA | -0.0147
CAGGATCG | -0.0859
CATTAGAG | -0.049
CACACTAA | 0.046
ACTCCCTA | -0.00366
ATTAATTC | 0.177
ACGCTCTA | -0.147
AACTCCTC | -0.175
AACGAAGG | -0.00269
GGTGCGAA | 0.0436
GGATCTGA | 0.0262
